Assay results from different studies.
Parts stem from different laboratories: compare values within a part only. Positions count from the first letter of the parent shown.

Study 1
Target: CCNA2, cyclin fold, Cln2 fusion (human)
Technique: yeast growth competition, sequencing
Medium: yeast
Notes: weak parent motif
Baseline: not given
Direction: higher = stronger binding
Starting sequence: EXO1 docking peptide (human); KPECGRVQRAIFQ
| Substitution | normalised enrichment score |
| --- | --- |
| APECGRVQRAIFQ [K1A] | 0.562 |
| KPECGRAQRAIFQ [V7A] | 0.559 |
| KPECARVQRAIFQ [G5A] | 0.0642 |
| KPECGRVARAIFQ [Q8A] | 1.16 |
| KPEAGRVQRAIFQ [C4A] | 0.554 |
| KPECGRVQRAIAQ [F12A] | 0.37 |

Study 2
Target: Histone acetyltransferase KAT6A, winged helix 2, GST fusion (KAT6A, Homo sapiens, UniProt Q92794, residues 85-181)
Technique: protein binding microarray
Form: double-stranded DNA, one strand shown
Medium: in vitro
Concentration: not given
Notes: 8-mer, flanks averaged, mean of 2 arrays, mostly near background
Baseline: not given
Direction: higher = stronger binding
Residues (chain): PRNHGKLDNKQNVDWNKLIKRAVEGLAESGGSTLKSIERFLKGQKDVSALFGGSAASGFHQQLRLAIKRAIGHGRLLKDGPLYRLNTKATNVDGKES
| Strand | E-score |
| --- | --- |
| AATTATCA | 0.149 |
| CAAGCTGG | -0.0592 |
| CTTTGCTC | 0.0883 |
| AGGGTGCG | -0.0929 |
| AGTTACAC | 0.112 |
| AGCCGTGC | 0.00928 |
| ACATTAGA | -0.121 |
| GGGGTCGA | -0.0469 |
| GAGCACCA | -0.00188 |
| AAAACCTG | -0.14 |
| AGAGACCC | -0.00722 |
| GGGCACCA | 0.0352 |
| ACGTCCCT | -0.0971 |
| AGCATTCG | -0.0381 |
| ATACTTGC | -0.162 |
| CTCCGGAG | -0.0602 |
| AGCACTAG | -0.00733 |
| CAATCGTC | -0.172 |
| AATCCGTA | -0.23 |
| CAAATACG | -0.0354 |
| ACTAACAG | -0.0625 |
| CGCGTATA | -0.117 |
| GGATGTAA | 0.0692 |
| AATGCTAG | -0.221 |
| CCGTCGAG | 0.131 |

Study 3
Target: TAR DNA-binding protein 43, full length, His tag (TARDBP, Homo sapiens, UniProt Q13148, residues 1-414)
Technique: RNA Bind-n-Seq
Form: RNA
Medium: in vitro
Concentration: 20 nM
Notes: 6-mer, flanks averaged, single round
With: 150 mM LiCl
Baseline: input library
Direction: higher = stronger binding
| Strand | 6-mer enrichment (R) |
| --- | --- |
| AUUCCA | 0.901 |
| CUUCGA | 0.802 |
| UCUGCC | 0.934 |
| UGCCAC | 0.944 |
| AAAACC | 0.836 |
| GUUUGA | 1.21 |
| AUCGGG | 0.953 |
| ACGGAC | 0.946 |
| CCGCAA | 0.879 |
| UUAACA | 0.874 |
| GUAGUU | 1.08 |
| UAAUAU | 1.04 |
| AGCGCA | 0.959 |
| ACUAAG | 0.828 |
| CAAAAC | 0.803 |
| GCAGGC | 0.992 |
| UUUCCA | 0.955 |
| CCAGCG | 0.966 |
| CGCGAA | 0.847 |
| GUCCUU | 1.03 |
| GCUGGU | 1.06 |
| CUGGAU | 0.892 |
| GUGAUG | 1.27 |
| CCAGUA | 0.909 |
| GUACCG | 0.892 |

Study 4
Target: ABI1, truncated, D143A, DHFR fusion (Arabidopsis thaliana)
Technique: DHFR PCA, deep sequencing
Medium: yeast
Notes: methotrexate growth selection, single substitutions
With: (+)-ABA 200 µM
Baseline: wild-type fitted maximum
Direction: higher = stronger binding
Starting sequence: PYL1, truncated, DHFR fusion (Arabidopsis thaliana); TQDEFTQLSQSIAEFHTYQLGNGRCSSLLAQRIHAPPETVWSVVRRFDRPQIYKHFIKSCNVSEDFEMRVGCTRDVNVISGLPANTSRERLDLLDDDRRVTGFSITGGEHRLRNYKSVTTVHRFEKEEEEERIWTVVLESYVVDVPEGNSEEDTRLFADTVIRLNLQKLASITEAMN
| Substitution | relative binding score [%] |
| --- | --- |
| H16I | 0.136 |
| D92V | 74.5 |
| R32Q | 99.7 |
| N22S | 100 |
| C60F | 10.8 |
| T73K | 98.5 |
| V70H | 87.9 |
| G21F | 91.7 |
| S80C | 45.9 |
| G21T | 101 |
| S87C | 64.1 |
| E152A | 97.5 |
| D92Q | 66.2 |
| Q10D | 101 |
| R123Y | 103 |
| D75H | 101 |

Study 5
Target: Ras GTPase-activating protein-binding protein 1, RRM domain (G3BP1, Homo sapiens, UniProt Q13283)
Sequence of UniProt Q13283 (whole entry, looked up): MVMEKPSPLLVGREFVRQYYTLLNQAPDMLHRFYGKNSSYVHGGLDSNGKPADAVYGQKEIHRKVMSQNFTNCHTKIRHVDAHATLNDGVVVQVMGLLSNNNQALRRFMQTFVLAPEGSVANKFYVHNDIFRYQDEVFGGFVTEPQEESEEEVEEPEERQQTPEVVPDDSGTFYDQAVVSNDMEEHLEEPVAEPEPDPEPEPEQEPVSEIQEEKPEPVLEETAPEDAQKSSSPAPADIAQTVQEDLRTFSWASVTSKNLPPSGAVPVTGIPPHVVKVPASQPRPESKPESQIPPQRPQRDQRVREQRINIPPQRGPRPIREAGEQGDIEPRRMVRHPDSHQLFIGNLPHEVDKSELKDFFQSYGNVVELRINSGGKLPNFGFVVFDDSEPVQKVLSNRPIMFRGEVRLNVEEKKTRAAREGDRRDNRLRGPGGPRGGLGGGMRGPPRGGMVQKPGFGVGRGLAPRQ
Technique: RNA Bind-n-Seq
Form: RNA
Medium: in vitro
Concentration: 1 µM
Notes: whole 134-nt RNA, ends assumed
With: 150 mM KCl
Baseline: input library
Direction: higher = stronger binding
| Strand | log2 enrichment |
| --- | --- |
| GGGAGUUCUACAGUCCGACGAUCUCCUGUGCUACACAUCGUAUGUACCGAAUCGGGGUGGGGAAAAAAAGGGGUUUUUGGGGAAAGUAUUAUGUUACGCCGUUCGGAUCUGCAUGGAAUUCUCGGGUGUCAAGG | 0.865 |
| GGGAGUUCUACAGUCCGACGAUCUGGGAGGUGGAUUUUGUUUAUUUUUCUAGCUCAUUUCCAGGGGUGGGAAUUUUUUUUUAAUAUGUGUCAUGAAUAAAGUUGUUUUUGAAAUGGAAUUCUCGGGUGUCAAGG | 2.09 |
| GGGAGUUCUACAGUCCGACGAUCUGGCCCUGGUGGCAUGCGGGGAGGAAGAGGUGGCCUCAUGGAUCGUGGUGGUCCCGGUGGAAUGUUCAGAGGUGGCCGUGGUGGAUACAGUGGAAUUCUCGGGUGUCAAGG | 1.11 |
| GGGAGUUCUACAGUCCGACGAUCCUCAAGUCCUGUGCUACACAUCGUAUGUACCGAAUCGGGUUGGUUGGGGUUGGGAAAGUAUUAUGUUACGCCGUUCGGAUCUGCACUUCCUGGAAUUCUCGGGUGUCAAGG | 0.268 |
| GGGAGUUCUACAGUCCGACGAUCAAGUCCUGUGCUACACAUCGUAUGUACCGAAUCGGGUGGGAAAGGGUUUUUUUGGGAAAGUAUUAUGUUACGCCGUUCGGAUCUGCACUUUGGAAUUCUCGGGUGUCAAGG | 0.659 |
| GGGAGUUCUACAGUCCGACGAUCUGGGAGGAGGAUUUUGUUUAUUUUUUUAGCUCAUUUCCAGGGGUGGGAAUUUUUUUUUAAUAUGUGUCAUGAAUAAAGUUGUUUUUGAAAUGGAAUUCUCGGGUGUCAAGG | 1.69 |
| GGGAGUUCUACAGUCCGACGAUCAAGUCCUGUGCUACACAUCGUAUGUACCGAAUCGUGUGUGUGUGUGUGUGUGUGUGUAAAGUAUUAUGUUACGCCGUUCGGAUCUGCACUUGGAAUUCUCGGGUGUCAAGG | 0.0114 |
| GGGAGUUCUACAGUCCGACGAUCCAAGUCCUGUGCUACACAUCGUAUGUACCGAAUCGGUUUGGAAAAAAAGGUUUGGAAAGUAUUAUGUUACGCCGUUCGGAUCUGCACUUCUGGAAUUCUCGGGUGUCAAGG | -0.419 |
| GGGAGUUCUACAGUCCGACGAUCUGGGAGGUGGAUUUUGUCUAUUUUUUUAGCUCAUUUCCAGGGGUGGGAAUUUUUUUUUAAUAUGUGUCAUGAAUAAAGUUGUUUUUGAAAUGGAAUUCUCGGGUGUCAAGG | 1.67 |
| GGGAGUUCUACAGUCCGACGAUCUGCCCCUGGUGGCAUGCGGGGAGGAAGAGGUGGCCUCAUGGAUCGUGGUGGUCCCGGUGGAAUGUUCAGAGGUGGCCGUGGUGGAGACAGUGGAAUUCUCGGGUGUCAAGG | 0.692 |

For quick reference, copied from above (study 2):
| Strand | E-score |
| --- | --- |
| CTTTGCTC | 0.0883 |
| GGGCACCA | 0.0352 |
| GAGCACCA | -0.00188 |
| CGCGTATA | -0.117 |
| ATACTTGC | -0.162 |
| AAAACCTG | -0.14 |
| AGCATTCG | -0.0381 |
| CTCCGGAG | -0.0602 |
| GGATGTAA | 0.0692 |
| ACTAACAG | -0.0625 |
| CAATCGTC | -0.172 |
